Measured values collected from several papers.
Numbered parts are unrelated; each lists some results of a single study. Several values in a cell are separate wells, animals, samples, runs or records.
UniProt P16591, sequence (whole entry, looked up): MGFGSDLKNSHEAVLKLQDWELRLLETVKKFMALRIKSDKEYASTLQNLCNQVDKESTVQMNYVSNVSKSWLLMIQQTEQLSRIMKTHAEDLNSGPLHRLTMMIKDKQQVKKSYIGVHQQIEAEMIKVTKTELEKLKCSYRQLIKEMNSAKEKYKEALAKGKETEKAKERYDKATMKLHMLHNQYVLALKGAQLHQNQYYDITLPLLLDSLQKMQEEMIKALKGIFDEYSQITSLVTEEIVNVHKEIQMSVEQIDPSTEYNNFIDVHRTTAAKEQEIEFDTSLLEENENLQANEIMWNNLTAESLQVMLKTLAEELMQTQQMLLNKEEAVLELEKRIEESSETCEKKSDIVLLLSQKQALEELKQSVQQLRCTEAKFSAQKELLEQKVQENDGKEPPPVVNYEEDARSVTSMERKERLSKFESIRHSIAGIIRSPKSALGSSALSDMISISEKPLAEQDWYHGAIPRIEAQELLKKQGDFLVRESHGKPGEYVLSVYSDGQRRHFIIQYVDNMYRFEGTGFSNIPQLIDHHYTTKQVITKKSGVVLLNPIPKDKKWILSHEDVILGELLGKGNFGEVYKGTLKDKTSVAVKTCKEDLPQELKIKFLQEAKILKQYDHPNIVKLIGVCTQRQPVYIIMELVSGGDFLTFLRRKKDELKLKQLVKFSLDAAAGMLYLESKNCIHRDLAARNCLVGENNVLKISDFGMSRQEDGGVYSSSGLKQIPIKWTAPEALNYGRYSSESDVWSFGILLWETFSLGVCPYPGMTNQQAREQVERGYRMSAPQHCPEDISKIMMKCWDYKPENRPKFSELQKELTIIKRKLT
UniProt P35968, sequence (whole entry, looked up): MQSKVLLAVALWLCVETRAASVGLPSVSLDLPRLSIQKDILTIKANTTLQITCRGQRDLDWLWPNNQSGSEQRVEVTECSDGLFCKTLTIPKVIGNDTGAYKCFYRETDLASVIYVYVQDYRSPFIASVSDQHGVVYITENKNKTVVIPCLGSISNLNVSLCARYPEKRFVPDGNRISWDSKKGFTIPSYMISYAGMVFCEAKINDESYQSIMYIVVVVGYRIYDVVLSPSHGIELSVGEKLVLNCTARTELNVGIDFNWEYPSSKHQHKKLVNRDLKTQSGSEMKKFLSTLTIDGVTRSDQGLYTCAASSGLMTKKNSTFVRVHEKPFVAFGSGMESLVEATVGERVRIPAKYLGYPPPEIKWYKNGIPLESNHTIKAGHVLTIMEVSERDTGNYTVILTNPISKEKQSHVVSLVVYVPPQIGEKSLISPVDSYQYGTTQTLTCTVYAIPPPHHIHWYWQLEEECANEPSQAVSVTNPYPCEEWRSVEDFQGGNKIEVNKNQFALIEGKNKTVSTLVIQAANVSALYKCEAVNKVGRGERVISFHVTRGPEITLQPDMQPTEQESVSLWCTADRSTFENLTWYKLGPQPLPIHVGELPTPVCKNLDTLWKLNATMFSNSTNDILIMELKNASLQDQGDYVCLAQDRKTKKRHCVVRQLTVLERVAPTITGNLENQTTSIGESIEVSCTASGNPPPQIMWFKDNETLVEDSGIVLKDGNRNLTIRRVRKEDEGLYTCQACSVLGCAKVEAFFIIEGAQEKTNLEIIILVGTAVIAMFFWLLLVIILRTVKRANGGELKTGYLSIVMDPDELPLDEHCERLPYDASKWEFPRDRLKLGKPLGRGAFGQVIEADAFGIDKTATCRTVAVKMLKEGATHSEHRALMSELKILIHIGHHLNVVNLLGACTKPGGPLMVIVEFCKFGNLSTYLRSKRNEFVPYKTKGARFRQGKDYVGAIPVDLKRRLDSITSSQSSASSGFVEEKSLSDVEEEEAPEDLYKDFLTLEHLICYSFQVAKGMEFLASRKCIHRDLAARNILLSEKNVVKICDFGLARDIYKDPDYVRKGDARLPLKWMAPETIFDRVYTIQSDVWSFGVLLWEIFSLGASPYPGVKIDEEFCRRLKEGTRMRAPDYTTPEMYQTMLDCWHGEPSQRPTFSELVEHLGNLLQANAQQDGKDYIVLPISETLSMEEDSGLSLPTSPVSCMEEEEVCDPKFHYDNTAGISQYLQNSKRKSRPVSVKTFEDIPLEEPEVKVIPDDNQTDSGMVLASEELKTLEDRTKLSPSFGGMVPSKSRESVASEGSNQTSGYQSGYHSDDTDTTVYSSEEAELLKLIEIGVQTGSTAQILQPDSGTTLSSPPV
UniProt Q15303, sequence (whole entry, looked up): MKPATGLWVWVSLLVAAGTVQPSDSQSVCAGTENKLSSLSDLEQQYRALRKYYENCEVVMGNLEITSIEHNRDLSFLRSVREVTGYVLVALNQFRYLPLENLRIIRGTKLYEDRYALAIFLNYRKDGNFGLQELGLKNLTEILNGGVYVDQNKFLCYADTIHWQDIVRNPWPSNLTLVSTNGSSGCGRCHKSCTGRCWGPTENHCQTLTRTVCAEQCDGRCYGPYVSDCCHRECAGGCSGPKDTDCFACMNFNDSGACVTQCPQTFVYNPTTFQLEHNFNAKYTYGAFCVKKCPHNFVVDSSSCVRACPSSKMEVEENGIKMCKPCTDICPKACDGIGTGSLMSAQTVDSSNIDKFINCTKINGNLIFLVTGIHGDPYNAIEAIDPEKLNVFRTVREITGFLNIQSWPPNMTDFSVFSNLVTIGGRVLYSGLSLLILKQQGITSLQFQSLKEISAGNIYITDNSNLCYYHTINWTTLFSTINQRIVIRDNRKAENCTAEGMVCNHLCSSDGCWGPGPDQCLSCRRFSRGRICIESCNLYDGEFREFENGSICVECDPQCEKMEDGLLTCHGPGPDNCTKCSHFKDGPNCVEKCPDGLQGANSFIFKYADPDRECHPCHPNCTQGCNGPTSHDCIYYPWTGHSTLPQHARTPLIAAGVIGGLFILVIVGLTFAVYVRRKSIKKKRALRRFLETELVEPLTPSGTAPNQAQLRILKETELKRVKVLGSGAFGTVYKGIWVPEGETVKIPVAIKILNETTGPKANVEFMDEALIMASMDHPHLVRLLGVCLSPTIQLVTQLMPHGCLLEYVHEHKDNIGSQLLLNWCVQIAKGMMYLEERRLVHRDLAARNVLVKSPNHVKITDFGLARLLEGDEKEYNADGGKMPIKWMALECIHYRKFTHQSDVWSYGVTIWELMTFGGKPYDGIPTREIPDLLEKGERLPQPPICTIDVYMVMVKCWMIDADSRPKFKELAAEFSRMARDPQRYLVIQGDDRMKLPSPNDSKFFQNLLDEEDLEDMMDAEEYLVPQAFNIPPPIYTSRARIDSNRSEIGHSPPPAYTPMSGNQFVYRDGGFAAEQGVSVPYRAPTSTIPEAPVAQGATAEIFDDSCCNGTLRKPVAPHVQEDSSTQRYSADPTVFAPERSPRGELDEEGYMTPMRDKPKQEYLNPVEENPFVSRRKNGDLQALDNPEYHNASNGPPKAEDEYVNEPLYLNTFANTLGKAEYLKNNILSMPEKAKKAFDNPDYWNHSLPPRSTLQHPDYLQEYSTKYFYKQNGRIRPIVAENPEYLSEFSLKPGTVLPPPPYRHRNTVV
UniProt Q9BUB5, sequence (whole entry, looked up): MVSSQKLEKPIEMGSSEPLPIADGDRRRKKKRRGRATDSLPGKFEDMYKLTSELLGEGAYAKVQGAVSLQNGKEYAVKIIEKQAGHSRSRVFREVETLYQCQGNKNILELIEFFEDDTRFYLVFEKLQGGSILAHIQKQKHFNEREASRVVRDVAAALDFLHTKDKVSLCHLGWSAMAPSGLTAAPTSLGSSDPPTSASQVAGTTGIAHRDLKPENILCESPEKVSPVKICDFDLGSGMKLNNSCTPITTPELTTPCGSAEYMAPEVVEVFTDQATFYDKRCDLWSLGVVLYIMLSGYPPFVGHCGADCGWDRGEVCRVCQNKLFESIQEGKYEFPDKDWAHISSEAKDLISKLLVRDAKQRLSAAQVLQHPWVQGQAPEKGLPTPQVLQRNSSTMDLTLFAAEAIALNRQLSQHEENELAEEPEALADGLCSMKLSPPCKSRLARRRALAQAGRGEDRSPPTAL
UniProt P07333, sequence (whole entry, looked up): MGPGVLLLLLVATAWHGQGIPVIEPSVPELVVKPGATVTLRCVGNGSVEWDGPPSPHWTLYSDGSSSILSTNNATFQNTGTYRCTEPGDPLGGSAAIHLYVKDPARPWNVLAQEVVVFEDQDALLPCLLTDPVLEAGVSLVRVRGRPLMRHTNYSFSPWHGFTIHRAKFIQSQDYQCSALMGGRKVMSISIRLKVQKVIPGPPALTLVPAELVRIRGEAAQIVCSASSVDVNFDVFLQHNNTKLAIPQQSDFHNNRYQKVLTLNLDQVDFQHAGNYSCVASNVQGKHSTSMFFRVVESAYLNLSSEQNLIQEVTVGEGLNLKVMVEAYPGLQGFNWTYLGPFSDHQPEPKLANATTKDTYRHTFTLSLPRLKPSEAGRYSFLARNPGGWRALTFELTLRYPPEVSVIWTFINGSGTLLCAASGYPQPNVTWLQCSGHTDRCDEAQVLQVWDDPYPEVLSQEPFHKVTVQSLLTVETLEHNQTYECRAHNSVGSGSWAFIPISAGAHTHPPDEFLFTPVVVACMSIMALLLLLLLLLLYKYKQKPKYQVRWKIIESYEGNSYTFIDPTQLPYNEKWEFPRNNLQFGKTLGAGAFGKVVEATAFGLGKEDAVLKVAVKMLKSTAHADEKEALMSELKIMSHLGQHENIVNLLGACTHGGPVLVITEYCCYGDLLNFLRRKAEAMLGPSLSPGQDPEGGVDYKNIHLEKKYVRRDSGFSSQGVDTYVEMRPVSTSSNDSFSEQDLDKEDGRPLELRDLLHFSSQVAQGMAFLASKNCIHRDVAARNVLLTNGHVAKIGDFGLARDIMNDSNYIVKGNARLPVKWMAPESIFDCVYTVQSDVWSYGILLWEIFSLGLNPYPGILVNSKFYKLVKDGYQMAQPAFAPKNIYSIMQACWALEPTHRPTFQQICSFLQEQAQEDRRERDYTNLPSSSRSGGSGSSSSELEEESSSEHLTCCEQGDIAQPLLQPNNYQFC

Sample 1
Cell line: A-375
Tested at: 100 µM
Time: 18 h
SMILES | viability
CCOC(=O)C1=C(C)NC(C)=C(C(=O)OC)C1c1cccc([N+](=O)[O-])c1 (stereo not shown) | 19.1%
C=C[C@H]1[C@H](O[C@@H]2O[C@H](CO)[C@@H](O)[C@H](O)[C@H]2O)OC=C2C(=O)OCC[C@]21O | 92.9%
CC1(C)S[C@@H]2[C@H](NC(=O)[C@H](N)c3ccccc3)C(=O)N2[C@H]1C(=O)O | 95.6% and 107%
COc1cc2c(Oc3ccc4[nH]c(C)cc4c3F)ncnc2cc1OCCCN1CCCC1 | 9.34%
Clc1ccc(CCC(Cn2ccnc2)Sc2c(Cl)cccc2Cl)cc1 (stereo not shown) | 8.13%
CC1(C)O[C@@H]2C[C@H]3[C@@H]4CCC5=CC(=O)C=C[C@]5(C)[C@@]4(F)[C@@H](O)C[C@]3(C)[C@]2(C(=O)CO)O1 | 84.3%
C[C@@H]1C/C=C/C=C/C=C/C=C/[C@H](O[C@@H]2O[C@H](C)[C@@H](O)[C@H](N)[C@@H]2O)C[C@@H]2O[C@](O)(C[C@@H](O)C[C@H]3O[C@@H]3/C=C/C(=O)O1)C[C@H](O)[C@H]2C(=O)O | 110%
Cc1ncc([N+](=O)[O-])n1CCO | 95%

Sample 2
Cell line: mouse MPNST tumor cells
Technique: high-content immunofluorescence imaging
Item: nuclear SOX9
Tested at: 10 µM
Time: 12 h
Notes: mean of 2 replicates
Baseline: DMSO control
Direction: higher = more nuclear SOX9
SMILES | nuclear SOX9 intensity
CCN1C(=O)NC(c2ccccc2)C1=O (stereo not shown) | 91.7 % of DMSO
CCOC(=O)c1ncc2[nH]c3cccc(OC(C)C)c3c2c1C | 107 % of DMSO
C=CCOC(Cn1ccnc1)c1ccc(Cl)cc1Cl (stereo not shown) | 105 % of DMSO
CCN(CC)CCCC(C)Nc1ccnc2cc(Cl)ccc12 (stereo not shown) | 121 % of DMSO and 116 % of DMSO and 93.2 % of DMSO
NC(=O)c1cccnc1 | 105 % of DMSO
CCCCCCCN(CC)CCCC(O)c1ccc(NS(C)(=O)=O)cc1 (stereo not shown) | 98.3 % of DMSO and 114 % of DMSO and 116 % of DMSO
CC(=O)N[C@@H](CC(C)C)C(=O)O | 94.9 % of DMSO
Cc1cc(C)c(C2=NOC3C4CCC(C4)C23)c(C)c1 (stereo not shown) | 127 % of DMSO

Sample 3
SMILES: O=S(=O)(NC1CCC(c2cc(F)ccc2F)(S(=O)(=O)c2ccc(Cl)cc2)CC1)C(F)(F)F (stereo not shown)
Technique: competition with immobilised ligand
Tested at: 1 µM
target | read-out | remaining binding [%]
ERBB4 (Homo sapiens, UniProt Q15303) | cell-free assay | 94
WEE2 (Homo sapiens, UniProt P0C1S8) | cell-free assay | 100
INSRR (Homo sapiens, UniProt P14616) | cell-free assay | 100
PRKX (Homo sapiens, UniProt P51817) | cell-free assay | 100
Macrophage colony-stimulating factor 1 receptor, autoinhibited (CSF1R, Homo sapiens, UniProt P07333) | cell-free assay | 100
Myosin-IIIb (MYO3B, Homo sapiens, UniProt Q8WXR4) | binding | 100
RIOK3 (Homo sapiens, UniProt O14730) | cell-free assay | 83
MKNK1 (Homo sapiens, UniProt Q9BUB5) | cell-free assay | 93
FER (Homo sapiens, UniProt P16591) | cell-free assay | 100
PIP4K2B (Homo sapiens, UniProt P78356) | cell-free assay | 68

Sample 4
SMILES: O=C1NC(=O)/C(=C/c2ccc3c(c2)OC(F)(F)O3)S1
Read-out: enzyme activity
Mode: inhibitor
Tested at: 0.5 µM
Baseline: control
target | remaining activity
GRK4 (Homo sapiens, UniProt P32298) | 102%
Cyclin-dependent kinase 1, with cyclin A (CDK1, Homo sapiens, UniProt P06493) | 97.2%
PAK3 (Homo sapiens, UniProt O75914) | 93.1%
PNCK (Homo sapiens, UniProt Q6P2M8) | 96%
MAPK14 (Homo sapiens, UniProt Q16539) | 86.7%
MINK1 (Homo sapiens, UniProt Q8N4C8) | 90.1%
TLK2 (Homo sapiens, UniProt Q86UE8) | 104%
MET (Homo sapiens, UniProt P08581) | 96.2%
ROCK1 (Homo sapiens, UniProt Q13464) | 93.7%
KDR (Homo sapiens, UniProt P35968) | 94.6%
TXK (Homo sapiens, UniProt P42681) | 95.4%
PRKG2 (Homo sapiens, UniProt Q13237) | 104%
MARK2 (Homo sapiens, UniProt Q7KZI7) | 96.8%
RPS6KA4 (Homo sapiens, UniProt O75676) | 108%

For quick reference, copied from above (sample 4):
target | remaining activity
MET (Homo sapiens, UniProt P08581) | 96.2%
ROCK1 (Homo sapiens, UniProt Q13464) | 93.7%
KDR (Homo sapiens, UniProt P35968) | 94.6%
TXK (Homo sapiens, UniProt P42681) | 95.4%
PRKG2 (Homo sapiens, UniProt Q13237) | 104%
MARK2 (Homo sapiens, UniProt Q7KZI7) | 96.8%
RPS6KA4 (Homo sapiens, UniProt O75676) | 108%
